# Results of several laboratories.
# Protocols differ between the studies behind these lines. “And” joins repeats or separate records; there may be more than shown. ± marks the error that the study gave.
Compound,assay,system,conditions,scale,quantity,value
CCCCN1C(=O)c2cccc3c(NCCN4CCOCC4)ccc(c23)C1=O,,DMF,,,molar extinction coefficient,7620 M⁻¹ cm⁻¹
CN(O)C(=O)CCC(=O)NCCCN(CCCCN(CCCNC(=O)CCC(=O)N(C)O)C(=O)CCC(=O)N(C)O)C(=O)CCC(=O)N(C)O.[89Zr],radio-TLC,aqueous buffer,"3 d, pH 7.2, 37 °C, 89Zr-labelled complex, with: CuCl2 10-fold excess",,intact complex,99.5 ± 0.9%
Cc1ccc(-c2nc(N)c3c(Nc4ccc(F)cc4)n[nH]c3n2)cc1,,plasma,"time not given, plasma protein binding",,recovery,77.8%
O=C(Nc1cnccc1-c1ccc([18F])nc1)c1ccnc(NC(=O)C2CC2)c1,,"FVB/NJ mice (both sexes), muscle","intravenous, dose not given, 120 min, with: tariquidar 15 mg/kg i.v. pre-dose",,SUV,3.26
CCCC[C@H](OC(C)=O)c1ccccc1C(=O)O,,"beagle dogs, both sexes, whole blood","intravenous, 1.5 mg/kg single dose",,AUC(0-inf),1.56 ± 0.21 µg·h/mL
O=C1NC2(CC2)COc2ncc(F)cc2[C@H]2COCCN2c2ccn3ncc1c3n2,bone marrow micronucleus test,"NIH mice, female","oral, 200 mg/kg/day, 3 days",,PCE/(PCE+NCE) ratio,0.372 ± 0.053
O=C(NS(=O)(=O)c1cccs1)c1cc2ccccc2n1Cc1ccc(Br)c2ccccc12,,"Sprague-Dawley rat, male, plasma","oral, 2 mg/kg, 6 h",,plasma concentration,69.1 ng/mL
CN(CCNc1ccc2ncc(-c3ccc(C(N)=O)cc3)n2n1)C(=O)OC(C)(C)C,,"mouse, SNL model, plasma","oral, 60 mg/kg, 120 min",,free drug concentration,1250 nM
COc1ccc2c(c1)CCn1c[n+]3c(c1-2)-c1ccc(OC)cc1CC3,,"female NSG mice, blood","6 mg/kg, day 14, 5 days per week",,haemoglobin,13.4 ± 0.59 g/dL
CCC(C(=O)Nc1ccc(C(N)=O)c(F)c1)n1cc(OC)c(-c2cc(Cl)ccc2-n2cc(C(F)(F)F)nn2)cc1=O (stereo not shown),,healthy male humans,"25 mg, ASD vs IR, fasted",,mild adverse events,13.3%
C=CC(=O)Nc1cc(Nc2nccc(-c3c[nH]c4ccccc34)n2)c(OC)cc1N(C)CCN(C)C,storage stability,human dried blood spot,"2 h, on ice, MQC level",,recovery,87.6%
CCn1c(=O)c(-c2cc(NC(=O)Nc3ccccc3)c(F)cc2Br)cc2cnc(N)cc21,,human plasma,"4000 ng/mL, -20 °C, 3 cycles, high QC",,freeze-thaw stability accuracy,-6.3%
COCC1CN(C2CCN(c3cc(OC)c(Nc4ncc(Br)c(Nc5ccc6c(c5P(C)(C)=O)OCCO6)n4)cc3C)CC2)C1,first-in-human trial,human,"oral, 60 mg once daily",treatment-related leading to dose reduction,adverse events,0%
C/C(N)=N/C(=N\S(=O)(=O)c1ccc(C(F)(F)F)cc1)N1C[C@H](c2ccccc2)C(c2ccc(Cl)cc2)=N1,,"beagle dog, plasma","oral, 6 mg/kg",,bioavailability,44%
CC(C)[C@H](NC(=O)[C@H](Cc1c[nH]c2ccccc12)NC(=O)[C@H](CCCNC(=N)N)NC(=O)[C@H](CCCNC(=N)N)NC(=O)[C@@H](NC(=O)[C@@H](NC(=O)[C@H](CCCNC(=N)N)NC(=O)[C@@H](NC(=O)[C@@H](NC(=O)[C@H](CCCNC(=N)N)NC(=O)[C@H](CCCNC(=N)N)NC(=O)[C@@H](NC(=O)[C@H](Cc1c[nH]c2ccccc12)NC(=O)[C@H](CCCNC(=N)N)NC(=O)[C@H](CCCNC(=N)N)NC(=O)[C@@H](NC(=O)[C@H](CCCNC(=N)N)NC(=O)[C@H](CCCNC(=N)N)NC(=O)[C@@H](NC(=O)[C@H](Cc1c[nH]c2ccccc12)NC(=O)[C@H](CCCNC(=N)N)NC(=O)[C@@H](N)CCCNC(=N)N)C(C)C)C(C)C)C(C)C)C(C)C)C(C)C)C(C)C)C(C)C)C(=O)N[C@@H](CCCNC(=N)N)C(=O)N[C@@H](CCCNC(=N)N)C(=O)O,,"CD1 mouse, urine","intravenous, 15 mg/kg, 16 h, [14C]-labelled compound",,glucose,82 mg/dL
CN1CCCNC(=O)c2cccc(c2)C(=O)NCCCN(C)CCCNc2cccc3c2C(=O)c2cccc(c2C3=O)NCCC1,,"mice, serum",dose not given,,AST,53 IU/L
CN([O-])C(=O)CN1CCN(CC(=O)N(C)[O-])CCN(Cc2ccccn2)CC1.[89Zr+4],,"mouse, spleen","intravenous, 24 h",,tracer uptake,0.18 %ID/g
Cc1ccc(OCC(=O)N(Cc2cccs2)c2ccn[nH]2)cc1,,rat plasma,"750 ng/mL, 15 min, 37 °C",,remaining compound,3.8%
OC1(C(F)(F)F)CCN(c2nc(Nc3ccnc(C(F)(F)F)c3)nc(-c3cccc(C(F)(F)F)n3)n2)C1 (stereo not shown),,"Sprague-Dawley rat, both sexes, plasma","oral gavage, 5 mg/kg",,AUC(0-inf),6.71 ± 0.935 µg·h/mL
O=C(Nc1cnccc1-c1ccc([18F])cc1)c1ccnc(NC(=O)C2CC2)c1,ex vivo gamma counting,"GSK-3β transgenic mice, early-stage, adipose tissue","intravenous, 120 min",,mean SUV,0.07
CCCCN1C(=O)c2cccc3c(NCCCCN4CCOCC4)ccc(c23)C1=O,,dichloromethane,,,fluorescence lifetime,10.4 ns
C=C[C@]1(C)C[C@@H](OC(=O)CSc2ccc(NC(=O)c3ccco3)cc2)[C@]2(C)[C@H](C)CC[C@]3(CCC(=O)[C@H]32)[C@@H](C)[C@@H]1O,,"M. gallisepticum-infected chickens, plasma","intramuscular, 5 mg/kg single dose",,Tmax,22.8 min
CCCCN1C(=O)c2cccc3c(NCCCCCN4CCOCC4)ccc(c23)C1=O,,acetonitrile,,,fluorescence quantum yield,1.19
CC(C)C[C@H](NC(=O)[C@@H](CCCCNC(=O)[C@@H](Cc1ccccc1)NC(=O)CCCCCCCNC(=O)CN1CCN(CC(=O)O)CCN(CC(=O)O)CCN(CC(=O)O)CC1)NC(=O)[C@H](Cc1ccc(O)cc1)NC(=O)[C@H](CO)NC(=O)[C@H](Cc1c[nH]c2ccccc12)NC(=O)[C@H](Cc1c[nH]cn1)NC(=O)[C@@H]1CCC(=O)N1)C(=O)N[C@@H](CCCNC(=N)N)C(=O)N1CCC[C@H]1C(=O)NCC(N)=O [indium-111 labelled],biodistribution,"male athymic nude mice, DU-145 prostate cancer xenograft, stomach","intravenous, 0.037 MBq, 2 h post-injection",,tissue uptake,0.26 ± 0.15 %ID/g
CCCCN1C(=O)c2cccc3c(NCCCCCCCCN4CCOCC4)ccc(c23)C1=O,,toluene,,,molar extinction coefficient,10900 M⁻¹ cm⁻¹
[123I]c1ccc2nc(-c3ccc(-n4ccnn4)nc3)cn2c1,,"male Wistar rat, blood","intravenous, 4 MBq, 3 h",,tracer uptake,0.084 %ID/g
CC[C@H](C)[C@@H]1NC(=O)[C@H](Cc2ccc(O)cc2)NC(=O)CCCSC[C@@H](C(=O)N(CC(=O)N[C@@H](CC(C)C)C(=O)NCC(N)=O)Cc2ccc(F)cc2)NC(=O)[C@H](CC(N)=O)NC(=O)[C@H](CCC(N)=O)NC1=O,,"healthy human, plasma","intranasal, 400 µg every 3 h, after first dose",,AUC(0-t),0.000114 µg·h/mL
COc1ccc2c(c1)O[B-]1(c3ccccc3)OC(=O)C(c3ccccc3)=N[N+]1=C2C (stereo not shown),,toluene,,,molar absorption coefficient,22000 M⁻¹ cm⁻¹
CCCCN1C(=O)c2cccc3c(NCCCN4CCOCC4)ccc(c23)C1=O,,EG,,,molar extinction coefficient,5400 M⁻¹ cm⁻¹
CN1CCC[C@]1(C)/C=C/S(=O)(=O)NC(=O)Nc1c2c(cc3c1CCC3)CC=C2,,"human, plasma","oral, 100 mg twice daily of parent drug, day 14, metabolite of dosed drug",,AUC(0-t),1220 µg·h/mL
CCCCN1C(=O)c2cccc3c(NCCCCCCCCCCN4CCOCC4)ccc(c23)C1=O,,DMSO,,,molar extinction coefficient,13600 M⁻¹ cm⁻¹
C=Cc1c(C)c2cc3nc(c(CC(=O)[O-])c4[n-]c(cc5nc(cc1[n-]2)C(C)=C5CC)c(C)c4C(=O)[O-])C(CCC(=O)[O-])C3C.[Cu+2].[Na+].[Na+].[Na+] (stereo not shown),,mouse,"oral, dose not given",,time to visible green colour in bladder,≤ 72 h
C=C(NC(=O)c1csc(-c2nc3c(cc2O)-c2nc(cs2)C(=O)NC(C(C)O)C(=O)NC(=C(C)OC)c2nc(cs2)C(=O)NC2c4nc(cs4)C(=O)NC(COC(=O)c4c5c6c(cccc6n4O)COC(=O)C(OC4CC(C)(O)C(N(C)C)C(C)O4)C2OC5)c2nc-3cs2)n1)C(N)=O (stereo not shown),,"ICR mice, Streptococcus pneumoniae ATCC 49169 infected, immunocompromised, blood","intravenous, 2 mg/kg/day twice daily",,half-life,161 min
CCC(=O)N(C)c1ccc(Cl)c(Cl)c1,,female C57BL/6 mice,"oral, 10 mg/kg, 1 h",,plasma concentration,62.8 ng/mL
CCc1cnc(NC(=O)c2cc(S(=O)(=O)N3CCOCC3)ccc2N(C)C2CCCC2)s1,,mouse,"10 mg/kg, 3 doses",,mean corpuscular haemoglobin concentration,29.3 g/dL
Cc1cc(-c2ccc(C(=O)[C@@H]3CCCC[C@H]3C(=O)Nc3cnn4c3C(=O)NCC4)cc2)[nH]n1,,"human, urine","oral, 200 mg, 144-168 h",reference: dose,radioactivity recovery per interval,0.01% and < 0.01% and 0.03%
COc1cccc(OC)c1-c1cc(C(=O)NC2(C(=O)O)C3CC4CC(C3)CC2C4)nn1-c1ccc(C(=O)N(C)CCCN(C)C(=O)[C@H](CCCCNC(=O)[C@H](CC(C)C)NC(=O)C2OC2C(=O)O)NC(=O)CN2CCN(CC(=O)[O-])CCN(CC(=O)[O-])CCN(CC(=O)[O-])CC2)cc1C(C)C.[177Lu+3] (mixture of isomers),,"mouse, HT-29 xenograft","168 h post injection, biodistribution",reference: tumour over brain uptake,tumour-to-brain ratio,45.1
CC[C@H](C)[C@H](NC(=O)CNC(=O)[C@H](C)NC(=O)[C@H](CC(=O)O)NC(=O)[C@H](CO)NC(=O)[C@H](C)NC(=O)[C@H](CC(C)C)NC(=O)[C@H](CCCCN)NC(=O)[C@H](CCCCN)NC(=O)[C@H](CCSC)NC(=O)[C@H](CC(N)=O)NC(=O)[C@H](Cc1ccccc1)NC(=O)[C@H](CC(=O)O)NC(=O)[C@@H](N)CCSC)C(=O)N[C@@H](Cc1c[nH]c2ccccc12)C(=O)N[C@@H](Cc1ccccc1)C(=O)N[C@H](C(=O)N[C@@H](CCCNC(=N)N)C(=O)N[C@@H](C)C(=O)N[C@H](C(=O)N[C@@H](CCC(N)=O)C(=O)N[C@@H](Cc1ccccc1)C(=O)N[C@H](C(=O)N[C@@H](CCC(=O)O)C(=O)N[C@@H](CCC(=O)O)C(=O)N[C@@H](CCCCN)C(=O)N[C@@H](Cc1ccccc1)C(=O)NCC(=O)N[C@@H](CCC(N)=O)C(=O)N[C@@H](C)C(N)=O)[C@@H](C)O)C(C)C)[C@@H](C)O,circular dichroism,phosphate buffer,pH 7.4,,fractional helicity,0.83%
Cc1nn(-c2nc3c(F)cc(F)cc3s2)c(O)c1C(c1ccc(C(F)(F)F)cc1)c1c(C)nn(-c2nc3c(F)cc(F)cc3s2)c1O,,"ICR mouse, plasma","oral, 50 mg/kg",,AUC(all),361 µg·h/mL and 353 µg·h/mL and 381 µg·h/mL
O=C([O-])CN1CCN(CC(=O)[O-])CCN(C(CO)C(O)CO)CCN(CC(=O)[O-])CC1.[Dy+3] (stereo not shown),ICP-MS,"female cynomolgus monkey, plasma","intravenous bolus, 0.1 mmol/kg, lanthanide mixture, geometric mean",reference: AUC,terminal phase AUC share,0.719%

# A few entries again:
Compound,assay,system,conditions,scale,quantity,value
CC[C@H](C)[C@@H]1NC(=O)[C@H](Cc2ccc(O)cc2)NC(=O)CCCSC[C@@H](C(=O)N(CC(=O)N[C@@H](CC(C)C)C(=O)NCC(N)=O)Cc2ccc(F)cc2)NC(=O)[C@H](CC(N)=O)NC(=O)[C@H](CCC(N)=O)NC1=O,,"healthy human, plasma","intranasal, 400 µg every 3 h, after first dose",,AUC(0-t),0.000114 µg·h/mL
CN1CCCNC(=O)c2cccc(c2)C(=O)NCCCN(C)CCCNc2cccc3c2C(=O)c2cccc(c2C3=O)NCCC1,,"mice, serum",dose not given,,AST,53 IU/L
